{"data": "Assay results of several laboratories", "Methyl-accepting chemotaxis protein CtaA sensing domain": "Methyl-accepting chemotaxis protein CtaA, sensing domain (Pseudomonas fluorescens, UniProt Q3K7T6)", "note": "Protocols differ between the studies behind these lines. ± marks the error that the study gave."}
{"Molecule": "CC(C)C[C@H](N)C(=O)O", "target": "Methyl-accepting chemotaxis protein CtaA sensing domain", "test": "binding, thermal shift, unfolding equilibrium", "conditions": "25 °C", "Kd": "13 ± 3 µM"}
{"Molecule": "O=C(O)c1cc(NC(=O)C2CC2c2ccccc2)ccc1O (stereo not drawn)", "target": "GTPase KRas (KRAS, Homo sapiens, UniProt P01116, Q61H)", "test": "microscale thermophoresis", "conditions": "second low-affinity site, added: GNP-bound", "Kd": "3.5 µM"}
{"Molecule": "CO[C@@H]1O[C@H](CO)[C@H](O)[C@H](O)[C@H]1O", "target": "Galectin-9, N-terminal CRD (LGALS9, Homo sapiens, UniProt O00182)", "test": "binding, competitive fluorescence polarization", "conditions": "20 °C, N-terminal domain", "Kd": "3300 µM"}
{"Molecule": "O=C1c2c(O)ccc(O)c2C(=O)c2c(NCCNCCO)ccc(NCCNCCO)c21", "target": "HIV-1 SL2 RNA stem-loop", "test": "binding, ESI-FTMS titration", "conditions": "pH 7.5", "Kd": "6.6 ± 0.7 µM"}
{"Molecule": "Nc1nc2c(ncn2[C@@H]2O[C@H](COP(=O)(O)OP(=O)(O)OP(=O)(O)O)[C@@H](O)[C@H]2O)c(=O)[nH]1", "target": "tRNA(His) guanylyltransferase (THG1, Saccharomyces cerevisiae, UniProt P53215, E78A)", "test": "nucleotidyl transfer, substrate, single-turnover kinetics", "conditions": "pH 7.5, room temperature, added: ppp-tRNA(His)", "Kd": "216 ± 74 µM"}
{"Molecule": "CSCC[C@H](NC(=O)[C@@H](NC(=O)[C@@H](NC(=O)[C@H](CCC(=O)O)NC(=O)[C@H](Cc1c[nH]c2ccccc12)NC(=O)[C@H](C)NC(=O)[C@H](C)NC(=O)[C@@H](N)CCC(N)=O)[C@@H](C)O)C(C)C)C(=O)O", "target": "Na(+)/H(+) exchange regulatory cofactor NHE-RF1, PDZ2 domain (NHERF1, Homo sapiens, UniProt O14745)", "test": "isothermal titration calorimetry", "conditions": "pH 8.0, 25 °C", "Kd": "57.8 ± 2 µM"}
{"Molecule": "O=C(N/N=C/c1ccc([N+](=O)[O-])o1)c1ccc(O)cc1", "target": "Transcriptional regulator ERG (ERG, Homo sapiens, UniProt P11308)", "test": "binding, SPR", "Kd": "10.8 µM"}
{"Molecule": "C[C@H](N)C(=O)O", "target": "Methyl-accepting chemotaxis protein CtaA (Pseudomonas fluorescens, UniProt Q3K7T6)", "test": "binding, ITC", "conditions": "melting temperature", "Kd": "7.4 ± 0.4 µM"}
{"Molecule": "foliosidine", "target": "bft-3, proprotein (Bacteroides fragilis, UniProt O86049)", "test": "isothermal titration calorimetry", "conditions": "pH 7.4, 25 °C, zinc-bound, exosite binding", "Kd": "14 µM"}
{"Molecule": "CC(C)[C@H](N)C(=O)O", "target": "Methyl-accepting chemotaxis protein CtaA sensing domain", "test": "binding, thermal shift, zero heat capacity", "conditions": "25 °C", "Kd": "4.7 ± 0.5 µM"}
{"Molecule": "Nc1ncnc2c1ncn2[C@@H]1O[C@H](COP(=O)(O)OP(=O)(O)OP(=O)(O)O)[C@@H](O)[C@H]1O", "target": "tRNA(His) guanylyltransferase (THG1, Saccharomyces cerevisiae, UniProt P53215, N161A)", "test": "tRNA(His) adenylylation, substrate, single-turnover kinetics", "conditions": "pH 6.0, room temperature, added: p-tRNA(His)", "Kd": "1400 ± 400 µM"}
{"Molecule": "CC1=C(/C=C/C(C)=C/C=C/C(C)=C/C=O)C(C)(C)CCC1", "target": "Retinol-binding protein 1 (Rbp1, Rattus norvegicus, UniProt P02696)", "test": "binding, fluorescence titration", "conditions": "pH 7.4, 25 °C", "Kd": "0.009 ± 0.004 µM"}
{"note": "Repeated from above:"}
{"Molecule": "CO[C@@H]1O[C@H](CO)[C@H](O)[C@H](O)[C@H]1O", "target": "Galectin-9, N-terminal CRD (LGALS9, Homo sapiens, UniProt O00182)", "test": "binding, competitive fluorescence polarization", "conditions": "20 °C, N-terminal domain", "Kd": "3300 µM"}
